Results of several laboratories.
Compare with care: the assays were run in different laboratories. Numbers after ± are the reported error.

Structure (SMILES)	test	system	setting	tissue uptake [%ID/g]
N=C(N)NCc1ccc(C(=O)NCCCC[C@H](NC(=O)CCCCCCC(=O)NCCCC[C@H](NC(=O)N[C@@H](CCC(=O)O)C(=O)O)C(=O)O)C(=O)O)cc1[131I]		SCID mouse, PC-3 xenografts, stomach	21 h	1.98 ± 3.1
C=Cc1cc(O)cc2nc(-c3ccc(O)c([76Br])c3)oc12		female C57BL/6 mouse, liver	1 h, low dose	0.54 ± 0.19
N=C(N)NCc1ccc(C(=O)NCCCC[C@H](NC(=O)N[C@@H](CCC(=O)O)C(=O)O)C(=O)O)cc1[131I]		SCID mouse, PC-3 xenografts, muscle	2 h	0.24 ± 0.08
C[S]1CC[S]2CC[P](CO)(CO)[99Tc+]12.[C-]#[O+].[C-]#[O+].[C-]#[O+]		female CF-1 mouse, small intestine	intravenous, 24 h	0.3
N=C(N)NCc1ccc(C(=O)NCCCC[C@H](NC(=O)N[C@@H](CCC(=O)O)C(=O)O)C(=O)O)cc1[211At]		SCID mouse, PC-3 xenografts, lungs	21 h	1.02 ± 0.21
O=C(O)CC[C@H](NC(=O)O[C@@H](CCCCNC(=O)c1ccc([18F])cc1)C(=O)O)C(=O)O		mouse, PC-3 PIP/flu xenografts, lung	30 min	2.07 ± 1.51
COc1cc2ncnc(Oc3cccc(N[11C](=O)Nc4cc(C(C)(C)C(F)(F)F)on4)c3)c2cc1OC		Balb/c nude mouse, female, A375 melanoma xenograft, tumor	6.6 MBq, 60 min	1.85 ± 0.09
CC[C@H](C)[C@@H]1NC(=O)[C@@H](NC(=O)CNC(=O)c2ccc(F)cc2)CSSC[C@@H]2NC(=O)[C@H](C)NC(=O)CNC(=O)[C@@H]3CCCN3C(=O)[C@@H]3CSSC[C@@H](C(=O)NCC(=O)O)NC(=O)[C@H](Cc4ccc(O)cc4)NC(=O)CNC(=O)[C@H](CC(N)=O)NC(=O)CNC(=O)[C@H](CCCNC(=N)N)NC(=O)[C@H](CSSC[C@H](NC(=O)[C@H](CCCNC(=N)N)NC(=O)[C@H](Cc4ccccc4)NC(=O)[C@H](CC(C)C)NC(=O)[C@H](CC(C)C)NC(=O)[C@H]([C@@H](C)O)NC(=O)CNC(=O)[C@H](CC(C)C)NC(=O)[C@H](CC(=O)O)NC(=O)[C@H]([C@@H](C)O)NC(=O)[C@H](CCCNC(=N)N)NC(=O)[C@H](CCSC)NC(=O)[C@H](CC(N)=O)NC(=O)[C@H](CC(C)C)NC1=O)C(=O)N[C@@H](CCCNC(=N)N)C(=O)N[C@@H](CCCNC(=N)N)C(=O)N[C@@H](CC(=O)O)C(=O)N[C@@H](CO)C(=O)N[C@@H](CC(=O)O)C(=O)N3)NC(=O)[C@H]([C@@H](C)CC)NC2=O [fluorine-18 labelled]	γ-counting	mouse, lungs		2.9 ± 1.2
CN[C@](C)(C[18F])C(=O)O		SCID mouse SK-OV-3 xenograft, spleen	60 min, post injection	8.9 ± 2.1
